Results from different studies.
Several values in a cell are separate wells, animals, samples, runs or records. ± marks the error that the study gave.
PFF0160c E182D: Dihydroorotate dehydrogenase (quinone), mitochondrial (PFF0160c, Plasmodium falciparum, UniProt Q08210, E182D)
ACHE: Acetylcholinesterase (ACHE, Homo sapiens, UniProt P22303)

Compound	target	assay	system	conditions	scale	measurement	value
O[C@@H]1CCCC[C@H]1N1CCC(c2ccccc2)CC1 (racemic)	Vesicular acetylcholine transporter (Rattus norvegicus, UniProt Q62666)				reference: Ki σ2 (rat liver) over Ki VAChT	selectivity ratio	8.6
CC(c1ccc(Cl)c(Cl)c1)c1nn2c(-c3ccccc3F)nnc2s1 (stereo not shown)	PFF0160c E182D	enzyme activity, DCIP colorimetric			reference: E182D mutant over wild type	IC50 ratio	2
Nc1nc2c(ncn2[C@@H]2O[C@H](COP(=O)(O)OP(=O)(O)OP(=O)(O)O)[C@@H](O)[C@H]2O)c(=O)[nH]1	GTP 3',8-cyclase (moaA, Staphylococcus aureus, UniProt P69848, R266A)	isothermal titration calorimetry		concentration not given, 25 °C, R266A mutant, anaerobic		binding enthalpy	-6.2 ± 0.5 kcal/mol
CCOC(=O)CC(SP(=O)(OC)OC)C(=O)OCC (stereo not shown)	uncharacterized protein (Anopheles coluzzii, UniProt A0A6E8VQK1)	enzyme activity, inhibitor	Sf9 cell homogenate	1.147 µM, 0.1667 h, added: α-naphthyl acetate substrate	reference: no inhibitor	remaining activity	8.64%
CC[C@H](C)[C@H](NC(=O)CNC(=O)[C@@H](N)CCCCN)C(=O)N[C@@H](CC(C)C)C(=O)N[C@@H](CCCCN)C(=O)N[C@@H](CCCNC(=N)N)C(=O)N[C@@H](CCC(=O)O)C(=O)N[C@@H](CCCCN)C(=O)N[C@@H](CCCNC(=N)N)C(=O)N[C@@H](CC(C)C)C(=O)N[C@@H](CCCNC(=N)N)C(=O)N[C@@H](CCCNC(=N)N)C(=O)N[C@@H](CCCCN)C(=O)N[C@@H](CC(N)=O)C(=O)N[C@H](C(=O)N[C@@H](Cc1c[nH]cn1)C(=O)N[C@@H](Cc1c[nH]c2ccccc12)C(=O)N1CCC[C@H]1C(=O)N[C@@H](CCC(=O)O)C(=O)N[C@@H](CCC(=O)O)C(=O)NCC(=O)N[C@@H](CCCCN)C(=O)N[C@@H](CC(C)C)C(=O)N[C@@H](CCCNC(=N)N)C(=O)N[C@@H](CCC(=O)O)C(=O)N[C@@H](Cc1ccc(O)cc1)C(=O)N[C@@H](Cc1ccccc1)C(=O)N[C@@H](Cc1ccc(O)cc1)C(=O)N[C@@H](Cc1ccccc1)C(=O)N[C@@H](CCC(=O)O)C(=O)N[C@@H](CC(C)C)C(=O)N[C@@H](CC(=O)O)C(=O)N[C@@H](CCC(=O)O)C(=O)N[C@@H](C)C(=O)N[C@@H](CCC(=O)O)C(=O)N[C@@H](CCCNC(=N)N)C(=O)N[C@H](C(=O)N[C@@H](CC(N)=O)C(=O)N[C@H](C(=O)O)C(C)C)C(C)C)C(C)C	Serine/threonine-protein phosphatase PP1-gamma catalytic subunit (Homo sapiens, UniProt P36873)	ITC		25 °C		ΔG	-11.5 ± 0.2 kcal/mol
CC(Oc1ccc(C(=O)c2ccc(F)cc2)cc1)C(=O)N1CCc2ccccc21 (stereo not shown)	PFF0160c E182D	enzyme activity, DCIP colorimetric			reference: E182D mutant over wild type	IC50 ratio	0.2
Cc1nn(C)cc1-c1nc2c(N3CCN(Cc4ccc(Cl)cc4)CC3)c(Cl)cnc2[nH]1	PKN2 (Homo sapiens, UniProt Q16513)	KINOMEscan		1 µM	reference: DMSO control	remaining binding	33%
Cc1cn([C@H]2C[C@H](O)[C@@H](COP(=O)(O)OP(=O)(O)OP(=O)(O)O)O2)c(=O)[nH]c1=O	DNA polymerase I, Klenow fragment (polA, Escherichia coli, UniProt P00582, C907S/D424A/L744C/Y766A)	nucleotide incorporation, substrate, single-turnover rapid quench		added: radiolabelled primer-template DNA		maximum incorporation rate	5 ± 0.6 s⁻¹
O=C(CSc1nnc(O)n1Cc1ccccc1)Nc1ccccc1-c1ccccc1	PFF0160c E182D	enzyme activity, DCIP colorimetric			reference: E182D mutant over wild type	IC50 ratio	1.4
COc1c(O)c(Br)c2c3c1-c1cc4c(cc1CC3N(C)CC2)OCO4 (stereo not shown)	ADRA1A (Homo sapiens, UniProt P35348)	calcium flux, antagonist, FLIPR	CHO-K1	added: norepinephrine		apparent Kb	68 ± 18 nM
CN1C(=O)CCS(=O)(=O)C1c1ccc(Cl)cc1 (stereo not shown)	Nuclear receptor subfamily 2 group C member 2, ligand-binding domain (Homo sapiens, UniProt P49116)	SPR imaging		600 nM		koff	2.37e-07 s⁻¹
COc1cc2nccc(Oc3ccc(NC(=O)c4cc5c(n(-c6ccccc6)c4=O)CCCC5=O)nc3)c2cc1OC	MET (Homo sapiens, UniProt P08581)	cell viability, CellTiter-Glo	Ba/F3 expressing recombinant kinase		reference: MET IC50 over AXL IC50	selectivity ratio	> 100
C[C@]12CC[C@H]3[C@@H](CCC4=CC(=O)CC[C@@]43C)[C@@H]1CC[C@@H]2C(=O)CO	CYP11B1 (Homo sapiens, UniProt P15538, V320A)	substrate		100 µM, 37 °C, phospholipid vesicles		11β-hydroxylation product formation rate	35.9 ± 1.6 min⁻¹
C=C1C(=O)O[C@H]2[C@H]1[C@H](OC(=O)/C(C)=C\C)CC(=C)[C@@H]1[C@H](O)[C@H]3O[C@@]3(C)[C@@]12O	Bcl-2-related protein A1 (Mus musculus, UniProt Q07440, C113S/P104K)	differential scanning fluorimetry		100 µM		delta Tm	0.33 °C
O=C(c1ccc(Cl)cc1)N1CCN2C(=O)N(OC(=O)N3CCOc4ccccc43)C(=O)C2C1 (stereo not shown)	Patatin-like phospholipase domain-containing protein 6 (PNPLA6, Homo sapiens, UniProt Q8IY17)	enzyme activity, inhibitor, MS-based ABPP	SW-620 in situ	10 µM, 2 h, 37 °C	reference: compound over DMSO, lower = stronger inhibition	median ratio	1.12
CC(=O)[C@]1(O)Cc2c(O)c3c(c(O)c2[C@@H](O[C@H]2C[C@H](N)[C@H](O)[C@H](C)O2)C1)C(=O)c1ccccc1C3=O	Beta-lactamase TEM (bla, Escherichia coli, UniProt P62593)	inhibitor				Hill coefficient	1.4
O=C(Nc1cnccc1Cl)N1CCN(Cc2ccc3c(c2)OC(F)(F)O3)CC1	SLC6A4 (Homo sapiens, UniProt P31645)	radioligand binding, inhibitor		50 µM, human, added: [3H]paroxetine		inhibition	8%
COc1cc(N)c(Cl)cc1C(=O)NC1CN2CCC1CC2 (stereo not shown)	GPR143 (Homo sapiens, UniProt P51810)	β-arrestin recruitment, TANGO luminescence		concentration not given	reference: basal luminescence	log2 fold change	0.548
[2H]c1c([2H])c([C@]2([2H])CCCN2C(=O)C(C)(C)Oc2ccc3cn[nH]c3c2)c([2H])c([2H])c1C([2H])([2H])[2H]	PRPF4B (Homo sapiens, UniProt Q13523)	KINOMEscan		1 µM	reference: DMSO control	remaining binding	71%

Compound	target	assay	system	conditions	scale	measurement	value
O=C(O)Cn1c(=O)n(Cc2ccc(Br)cc2F)c(=O)c2ccc(Cl)cc21	Fatty acid-binding protein, intestinal (Homo sapiens, UniProt P12104, T55A)	binding, affinity selection mass spectrometry		100 nM, pooled screen	reference: other proteins	fold change	20.1
C[C@@H](NC(=O)c1ccc(C#Cc2cccc(F)c2)cn1)C(C)(C)O	Grm5 (Rattus norvegicus, UniProt P31424)	calcium mobilization, agonist	HEK293 cells, low receptor expression		reference: glutamate maximum	maximum agonist efficacy	65%
COc1nc(NCC(C)C)nc(Oc2ccc(=O)n(Cc3ccccc3)n2)n1	PFF0160c E182D	enzyme activity, DCIP colorimetric			reference: E182D mutant over wild type	IC50 ratio	37
CC(=O)C(c1ccccc1)c1ccccc1	Bile acid receptor (NR1H4, Homo sapiens, UniProt Q96RI1)	coactivator recruitment, antagonist, TR-FRET		NG, added: 50 µM CDCA		efficacy	< 30%
CN1CCN(c2cc(-c3ccncc3)c(-c3ccc4ccccc4c3)nn2)CC1	ADRA2B (Homo sapiens, UniProt P18089)	agonist, FLIPR		12.5 µM		activation	-0.7%
COc1ccc(N2C(=O)N(c3c(C)cccc3Cl)Cc3cnc(Nc4ccc(C5CCN(C)CC5)cc4OC)nc32)nc1	TAOK2 (Homo sapiens, UniProt Q9UL54)	kinase activity		0.5 µM		inhibition	19%
C=C(F)c1sc(CNCCCNc2cc(O)c3ccccc3n2)c(C)c1Br	ACHE		biochemical	concentration not given		activity class	inactive
Nc1ncnc2c1ncn2[C@@H]1O[C@H](COP(=O)(O)OP(=O)(O)NP(=O)(O)O)[C@@H](O)[C@H]1O	Cell cycle histidine kinase CckA, cytoplasmic region (Caulobacter vibrioides, UniProt Q9X688)	ITC		added: c-di-GMP 100 µM		ΔH	-2.52 ± 0.352 kcal/mol
CN(C)[C@@H](CCOc1cccc2ccccc12)c1ccccc1	ACHE		biochemical	concentration not given		activity class	inactive
C[C@H]1CN(c2n[nH]c3nc(N[C@H]4CC[C@H](NS(=O)(=O)CCC(F)(F)F)CC4)ncc23)CCO1	CLK2 (Homo sapiens, UniProt P49760)	inhibitor, Kinobeads competition profiling		20 µM	reference: vehicle	relative abundance	1.14
CC[C@H]1NC(=O)[C@@H]2CSC(=N2)[C@@H](Cc2ccccc2)N(C)C(=O)[C@@H]2CCCN2C(=O)[C@H](C(C)C)N(C)C(=O)[C@H](Cc2ccccc2)OC(=O)[C@H](C)[C@@H](C)NC(=O)[C@@H]([C@@H](C)O)NC(=O)[C@@H](CC(C)C)N(C)C(=O)[C@@H]2CSC1=N2	Procathepsin L (CTSL, Homo sapiens, UniProt P07711)			20 µM	reference: solvent control	remaining activity	6%
CC[N+](CC)(CC)CCOC(=O)C(C1CCCC1)C1CCCC1	ACHE		biochemical	concentration not given		activity class	inactive
c1ccc2c3c(ccc2c1)-c1cccc2cccc-3c12	Aryl hydrocarbon receptor (Danio rerio, UniProt Q9YGV3)	reporter gene, agonist, luciferase reporter	ZF-4	13.72 µM	reference: vehicle control	fold change	1.76
C/C=C1/CN2CC[C@]34C(=C(C(=O)OC)[C@H]1C[C@H]23)Nc1ccc(I)cc14	ACKR3 (Homo sapiens, UniProt P25106)	agonist				active concentration	≥ 3 µM
C=C(CN(C(=O)c1c(C(F)F)nn(C)c1F)C1CC1)c1ccc(Cl)cc1Cl	SDHD/SDHC/SDHB (Sus scrofa, UniProt A5GZW8+D0VWV4+Q007T0)	enzyme activity, inhibitor, DCIP reduction	pig	0.1 µM, added: DCIP 160 µM		reaction velocity	0.0267 µM/s and 0.027 µM/s
COc1cc(Nc2ncc(F)c(Nc3ccc4c(n3)NC(=O)C(C)(C)O4)n2)cc(OC)c1OC	Myosin-IIIb (MYO3B, Homo sapiens, UniProt Q8WXR4)	KINOMEscan		10 µM		inhibition	0%
CC[C@@H](C)[C@@H](NC(=O)[C@@H](Cc1ccc(O)cc1)NC(=O)[C@H]1CCCN1C(=O)[C@@H](CCCNC(=N)N)NC(=O)[C@H](N)Cc1c[nH]cn1)C(=O)N[C@H](C)C(=O)N[C@H](Cc1c[nH]cn1)C(=O)N[C@H](CCCNC(=N)N)C(=O)N[C@H](CCCCNC(=O)c1cccc(S(=O)(=O)F)c1)C(=O)N[C@H](Cc1ccc(O)cc1)C(=O)N[C@H](CO)C(=O)N[C@H](Cc1ccccc1)C(N)=O	Transferrin receptor protein 1 (Tfrc, Mus musculus, UniProt Q62351)	flow cytometry	RAW264.7	2 h, pH 6, replicate 3, unit not given	reference: 0 h	surface TFRC expression	0.709
COc1ccc2[nH]c3c(c2c1)CCN(C)CC3.Cl	Neuronal acetylcholine receptor; alpha9/alpha10 (Homo sapiens, UniProt Q9GZZ6+Q9UGM1)	ion current, inhibitor, two-electrode voltage clamp	Xenopus laevis oocytes	added: 6 µM acetylcholine		Hill coefficient	1.8 ± 0.2

Some of these lines once more:
Compound	target	assay	system	conditions	scale	measurement	value
Nc1nc2c(ncn2[C@@H]2O[C@H](COP(=O)(O)OP(=O)(O)OP(=O)(O)O)[C@@H](O)[C@H]2O)c(=O)[nH]1	GTP 3',8-cyclase (moaA, Staphylococcus aureus, UniProt P69848, R266A)	isothermal titration calorimetry		concentration not given, 25 °C, R266A mutant, anaerobic		binding enthalpy	-6.2 ± 0.5 kcal/mol
CCOC(=O)CC(SP(=O)(OC)OC)C(=O)OCC (stereo not shown)	uncharacterized protein (Anopheles coluzzii, UniProt A0A6E8VQK1)	enzyme activity, inhibitor	Sf9 cell homogenate	1.147 µM, 0.1667 h, added: α-naphthyl acetate substrate	reference: no inhibitor	remaining activity	8.64%
CC[C@H](C)[C@H](NC(=O)CNC(=O)[C@@H](N)CCCCN)C(=O)N[C@@H](CC(C)C)C(=O)N[C@@H](CCCCN)C(=O)N[C@@H](CCCNC(=N)N)C(=O)N[C@@H](CCC(=O)O)C(=O)N[C@@H](CCCCN)C(=O)N[C@@H](CCCNC(=N)N)C(=O)N[C@@H](CC(C)C)C(=O)N[C@@H](CCCNC(=N)N)C(=O)N[C@@H](CCCNC(=N)N)C(=O)N[C@@H](CCCCN)C(=O)N[C@@H](CC(N)=O)C(=O)N[C@H](C(=O)N[C@@H](Cc1c[nH]cn1)C(=O)N[C@@H](Cc1c[nH]c2ccccc12)C(=O)N1CCC[C@H]1C(=O)N[C@@H](CCC(=O)O)C(=O)N[C@@H](CCC(=O)O)C(=O)NCC(=O)N[C@@H](CCCCN)C(=O)N[C@@H](CC(C)C)C(=O)N[C@@H](CCCNC(=N)N)C(=O)N[C@@H](CCC(=O)O)C(=O)N[C@@H](Cc1ccc(O)cc1)C(=O)N[C@@H](Cc1ccccc1)C(=O)N[C@@H](Cc1ccc(O)cc1)C(=O)N[C@@H](Cc1ccccc1)C(=O)N[C@@H](CCC(=O)O)C(=O)N[C@@H](CC(C)C)C(=O)N[C@@H](CC(=O)O)C(=O)N[C@@H](CCC(=O)O)C(=O)N[C@@H](C)C(=O)N[C@@H](CCC(=O)O)C(=O)N[C@@H](CCCNC(=N)N)C(=O)N[C@H](C(=O)N[C@@H](CC(N)=O)C(=O)N[C@H](C(=O)O)C(C)C)C(C)C)C(C)C	Serine/threonine-protein phosphatase PP1-gamma catalytic subunit (Homo sapiens, UniProt P36873)	ITC		25 °C		ΔG	-11.5 ± 0.2 kcal/mol
CC(Oc1ccc(C(=O)c2ccc(F)cc2)cc1)C(=O)N1CCc2ccccc21 (stereo not shown)	PFF0160c E182D	enzyme activity, DCIP colorimetric			reference: E182D mutant over wild type	IC50 ratio	0.2
